# Experimental data of several laboratories.
# Protocols differ between the studies behind these lines. Numbers after ± are the reported error.
# CNR2: Cannabinoid receptor 2 (CNR2, Homo sapiens, UniProt P34972)
# Sequence of UniProt P34972 (whole entry, looked up): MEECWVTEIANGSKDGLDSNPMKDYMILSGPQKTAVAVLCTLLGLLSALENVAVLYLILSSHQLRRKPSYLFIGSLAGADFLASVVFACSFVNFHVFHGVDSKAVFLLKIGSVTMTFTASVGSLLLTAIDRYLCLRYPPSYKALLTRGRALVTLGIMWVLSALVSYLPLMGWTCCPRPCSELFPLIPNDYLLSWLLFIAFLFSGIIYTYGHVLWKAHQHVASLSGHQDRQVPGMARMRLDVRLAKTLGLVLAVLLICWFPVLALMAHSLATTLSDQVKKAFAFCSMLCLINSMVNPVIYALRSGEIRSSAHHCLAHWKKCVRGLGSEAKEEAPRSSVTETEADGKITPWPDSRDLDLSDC
# C3AR1: C3a anaphylatoxin chemotactic receptor (C3AR1, Homo sapiens, UniProt Q16581)
# Sequence of UniProt Q16581 (whole entry, looked up): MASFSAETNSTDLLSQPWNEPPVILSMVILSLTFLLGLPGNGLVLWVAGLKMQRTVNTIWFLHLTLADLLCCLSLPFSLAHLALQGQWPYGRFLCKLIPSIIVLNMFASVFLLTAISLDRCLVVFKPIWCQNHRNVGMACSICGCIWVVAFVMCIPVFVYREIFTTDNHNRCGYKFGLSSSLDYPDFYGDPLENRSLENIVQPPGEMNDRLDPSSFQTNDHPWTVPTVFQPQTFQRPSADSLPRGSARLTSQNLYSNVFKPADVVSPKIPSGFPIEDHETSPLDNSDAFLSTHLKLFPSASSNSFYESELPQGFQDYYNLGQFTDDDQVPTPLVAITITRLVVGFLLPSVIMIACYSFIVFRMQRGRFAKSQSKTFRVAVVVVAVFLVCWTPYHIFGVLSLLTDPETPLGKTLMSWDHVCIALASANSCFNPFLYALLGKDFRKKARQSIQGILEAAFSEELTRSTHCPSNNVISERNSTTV
# Genome polyprotein NS2B-NS3 protease: Genome polyprotein, NS2B-NS3 protease (dengue virus type 2, UniProt P29990)
# GNRHR: Gonadotropin-releasing hormone receptor (GNRHR, Homo sapiens, UniProt P30968)
# Sequence of UniProt P30968 (whole entry, looked up): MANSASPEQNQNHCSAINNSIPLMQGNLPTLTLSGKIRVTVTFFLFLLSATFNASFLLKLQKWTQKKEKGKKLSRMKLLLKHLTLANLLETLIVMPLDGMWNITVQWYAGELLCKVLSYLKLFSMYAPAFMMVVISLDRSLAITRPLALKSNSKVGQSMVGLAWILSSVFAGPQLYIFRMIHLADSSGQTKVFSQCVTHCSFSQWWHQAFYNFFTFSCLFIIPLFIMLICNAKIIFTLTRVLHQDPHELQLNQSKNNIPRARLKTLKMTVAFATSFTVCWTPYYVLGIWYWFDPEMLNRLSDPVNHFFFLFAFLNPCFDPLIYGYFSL
# Sequence of UniProt Q8TDU9 (whole entry, unmodified, looked up): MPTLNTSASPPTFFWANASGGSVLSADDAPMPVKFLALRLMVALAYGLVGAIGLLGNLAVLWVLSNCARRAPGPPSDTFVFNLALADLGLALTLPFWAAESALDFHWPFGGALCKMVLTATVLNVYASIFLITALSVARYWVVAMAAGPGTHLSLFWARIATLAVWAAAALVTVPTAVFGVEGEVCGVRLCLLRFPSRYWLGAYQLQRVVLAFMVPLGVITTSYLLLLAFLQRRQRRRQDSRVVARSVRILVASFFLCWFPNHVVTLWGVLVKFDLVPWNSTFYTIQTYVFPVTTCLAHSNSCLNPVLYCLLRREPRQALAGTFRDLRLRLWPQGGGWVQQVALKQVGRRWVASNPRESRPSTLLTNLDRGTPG
# Sequence of UniProt P25103 (whole entry, looked up): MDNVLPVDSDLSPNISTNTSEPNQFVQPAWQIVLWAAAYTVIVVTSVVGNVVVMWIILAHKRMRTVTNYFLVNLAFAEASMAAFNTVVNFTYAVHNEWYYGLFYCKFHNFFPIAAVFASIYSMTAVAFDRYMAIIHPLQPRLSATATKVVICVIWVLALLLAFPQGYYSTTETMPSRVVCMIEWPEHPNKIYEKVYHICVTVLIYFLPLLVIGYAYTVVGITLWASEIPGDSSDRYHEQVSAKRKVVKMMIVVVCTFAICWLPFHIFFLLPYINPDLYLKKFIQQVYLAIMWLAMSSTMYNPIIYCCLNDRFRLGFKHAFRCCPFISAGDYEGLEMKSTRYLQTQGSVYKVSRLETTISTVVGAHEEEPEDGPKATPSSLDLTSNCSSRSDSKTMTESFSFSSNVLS
# Sequence of UniProt O43193 (whole entry, unmodified, looked up): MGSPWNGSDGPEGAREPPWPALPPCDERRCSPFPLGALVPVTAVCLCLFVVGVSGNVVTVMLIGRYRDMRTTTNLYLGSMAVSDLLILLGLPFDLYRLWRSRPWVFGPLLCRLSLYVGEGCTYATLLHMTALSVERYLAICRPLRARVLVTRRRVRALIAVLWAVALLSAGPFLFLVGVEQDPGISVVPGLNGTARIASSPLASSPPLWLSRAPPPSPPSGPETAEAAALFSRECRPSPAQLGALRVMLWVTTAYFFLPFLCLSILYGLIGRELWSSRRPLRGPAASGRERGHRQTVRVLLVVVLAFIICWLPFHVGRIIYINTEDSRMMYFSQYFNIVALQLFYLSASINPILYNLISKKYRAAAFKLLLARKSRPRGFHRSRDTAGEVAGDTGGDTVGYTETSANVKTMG
# Sequence of UniProt Q9NSD7 (whole entry, unmodified, looked up): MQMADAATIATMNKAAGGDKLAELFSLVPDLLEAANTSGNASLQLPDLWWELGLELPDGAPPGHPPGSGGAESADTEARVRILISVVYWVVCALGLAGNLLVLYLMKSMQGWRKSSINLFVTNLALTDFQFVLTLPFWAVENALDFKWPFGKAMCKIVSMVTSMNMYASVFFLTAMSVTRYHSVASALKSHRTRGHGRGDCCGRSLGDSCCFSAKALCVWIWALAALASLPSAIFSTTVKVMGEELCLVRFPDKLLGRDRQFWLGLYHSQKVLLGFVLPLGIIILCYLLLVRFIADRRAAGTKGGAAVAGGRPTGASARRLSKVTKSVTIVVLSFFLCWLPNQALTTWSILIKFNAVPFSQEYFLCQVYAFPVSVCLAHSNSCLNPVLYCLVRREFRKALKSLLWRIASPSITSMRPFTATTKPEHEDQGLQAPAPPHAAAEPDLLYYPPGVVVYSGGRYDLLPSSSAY
# Sequence of UniProt P25929 (whole entry, looked up): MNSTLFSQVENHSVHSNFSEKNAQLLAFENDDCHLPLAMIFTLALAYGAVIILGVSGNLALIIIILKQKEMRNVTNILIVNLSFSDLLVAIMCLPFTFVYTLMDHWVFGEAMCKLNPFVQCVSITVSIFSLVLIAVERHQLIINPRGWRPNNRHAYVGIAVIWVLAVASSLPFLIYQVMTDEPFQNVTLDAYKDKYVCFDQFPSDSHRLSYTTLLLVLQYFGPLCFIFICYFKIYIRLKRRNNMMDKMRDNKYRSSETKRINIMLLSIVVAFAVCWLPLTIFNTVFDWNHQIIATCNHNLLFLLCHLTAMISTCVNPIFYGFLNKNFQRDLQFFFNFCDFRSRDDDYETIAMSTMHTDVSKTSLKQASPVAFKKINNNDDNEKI
SMILES,target or system,test,system,setting,how to read,measurement,result
CCOC(=O)C(CC)(CCCSCCCCCCNC(=O)OC(C)(C)C)NC(=O)c1ccc(C2CC2)c(Cc2ccc(F)cc2)n1 (centres unmarked),CNR2,"cAMP, agonist",,,,Emax,85%
COc1cc(C2C(NC(=O)c3ccc(NC(=O)OC(C)(C)C)cc3)(C(=O)O)C(c3ccc(OC(=O)c4cccs4)c(OC)c3)C2(NC(=O)c2ccc(NC(=O)OC(C)(C)C)cc2)C(=O)O)ccc1OC(=O)c1cccs1 (centres unmarked),"GLP1R (Homo sapiens, UniProt P43220, W33A)","cAMP accumulation, agonist",,receptor mutant,relative to: wild type,Emax,68 ± 7.52%
CC(C)C[C@H](NC(=O)[C@@H](N)[C@@H](C)O)C(=O)N[C@@H](CCC(N)=O)C(=O)N1CCC[C@H]1C(=O)N1CCC[C@H]1C(=O)N[C@@H](C)C(=O)N[C@@H](CO)C(=O)N[C@@H](CO)C(=O)N[C@@H](CCCNC(=N)N)C(=O)N[C@@H](CCCNC(=N)N)C(=O)N[C@@H](CCCNC(=N)N)C(=O)N[C@@H](Cc1c[nH]cn1)C(=O)N[C@@H](Cc1ccccc1)C(=O)N[C@@H](Cc1c[nH]cn1)C(=O)N[C@@H](Cc1c[nH]cn1)C(=O)N[C@@H](C)C(=O)N[C@@H](CC(C)C)C(=O)N1CCC[C@H]1C(=O)N1CCC[C@H]1C(=O)N[C@@H](C)C(=O)N[C@@H](CCCNC(=N)N)C(=O)O,C3AR1,"GoA protein dissociation, agonist, NanoBiT",,,relative to: TLQP-21,Emax,45.4 ± 1.83%
CCOC(=O)[C@@](CC)(CCCSCCOCCOCCN)NC(=O)c1ccc(C2CC2)c(Cc2ccc(F)cc2)n1,CNR2,"cAMP, agonist",,,,Emax,81%
CCc1cc(O)cc2c(/C=N/NC(=N)NCCc3ccc(Cl)cc3)c[nH]c12,"RXFP3 (Homo sapiens, UniProt Q9NSD7, S163V)",,HEK-293T,,relative to: wild type,Emax,72.9 ± 5.48%
CSCC[C@H](NC(=O)[C@H](CC(C)C)NC(=O)CNC(=O)[C@H](Cc1ccccc1)NC(=O)[C@H](Cc1ccccc1)NC(=O)[C@@H](N)CCC(N)=O)C(N)=O,"TACR1 (Homo sapiens, UniProt P25103)",,,,,Emax,96%
CCOC(=O)C(CC)(CCCSCCOCCOCCOCCOCCNc1ccc([N+](=O)[O-])c2nonc12)NC(=O)c1ccc(C2CC2)c(Cc2ccc(F)cc2)n1 (centres unmarked),CNR2,"cAMP, agonist",,,,Emax,102%
COc1ccc(NC(=O)c2cc(-c3ccccc3)n(-c3ccccc3)n2)cc1,Genome polyprotein NS2B-NS3 protease,reporter gene,HeLa,,,EC50,41 µM
COC1CN([C@H]2CC[C@H]([C@@]3(C)Oc4c(Cl)cc(C(=O)NCc5c(SC)cc(C)[nH]c5=O)c(C)c4O3)CC2)C1,,"RNA-seq, measured: RUNDC3A","human, whole blood","dose not given, 24 h",relative to: pretreatment baseline,log2 fold change,5.76
CC(C)C[C@H](NC(=O)[C@@H](Cc1ccc2ccccc2c1)NC(=O)[C@H](Cc1ccc(O)cc1)NC(=O)[C@H](CO)NC(=O)[C@H](Cc1c[nH]c2ccccc12)NC(=O)[C@H](Cc1c[nH]cn1)NC(=O)[C@@H]1CCC(=O)N1)C(=O)N[C@@H](CCCNC(=N)N)C(=O)N1CCC[C@H]1C(=O)NCC(N)=O,GNRHR,"inositol phosphate, agonist, TR-FRET",HEK-293T,1 h,,Emax,100%
CC[C@H](C)[C@@H]1NC(=O)[C@H](Cc2ccccc2)NC(=O)[C@H](CCC(=O)O)NC(=O)[C@H](CCCNC(=N)N)NC(=O)CNC(=O)[C@@H](NC(=O)[C@H](CC(C)C)NC(=O)[C@H](CCCNC(=N)N)NC(=O)[C@@H](NC(=O)CNC(=O)[C@H](Cc2ccc(O)cc2)NC(=O)[C@@H]2CCCN2C(=O)[C@H](C)NC(=O)[C@H](C)NC(=O)[C@@H](N)CCCNC(=N)N)C(C)C)CSSC[C@@H]2NC(=O)[C@@H](NC(=O)[C@H](CO)NC(=O)[C@H](CO)NC(=O)[C@H](CO)NC(=O)[C@H](CC(C)C)NC(=O)CNC(=O)[C@H](C)NC(=O)[C@H](CC(C)C)NC(=O)[C@@H](NC(=O)[C@@H](N)CC(=O)O)C(C)C)CSSC[C@H](NC(=O)CNC(=O)[C@H](Cc3c[nH]c4ccccc34)NC(=O)[C@H](CCCCN)NC2=O)C(=O)N[C@@H](CO)C(=O)N[C@@H](CCCCN)C(=O)N[C@@H](CO)C(=O)N[C@@H](CCC(=O)O)C(=O)N[C@@H]([C@@H](C)CC)C(=O)N[C@@H](CO)C(=O)N[C@@H](CO)C(=O)N[C@@H](CC(C)C)C(=O)N[C@H](C(=O)O)CSSC[C@@H](C(=O)NCC(=O)NCC(=O)N[C@@H](CO)C(=O)N[C@@H](CCCNC(=N)N)C(=O)N[C@@H](Cc2c[nH]c3ccccc23)C(=O)O)NC(=O)[C@H]([C@@H](C)O)NC(=O)[C@H](Cc2ccccc2)NC(=O)[C@H]([C@@H](C)CC)NC(=O)[C@H](C(C)C)NC(=O)[C@H](C)NC(=O)[C@H](CCCNC(=N)N)NC1=O,"RXFP4 (Homo sapiens, UniProt Q8TDU9, S101A)",,HEK-293T,,relative to: wild type,Emax,33 ± 3.81%
CC[C@H](C)[C@H](NC(=O)[C@H](Cc1ccc(O)cc1)NC(=O)[C@H](CCCNC(=N)N)NC(=O)[C@H](CCCNC(=N)N)NC(=O)[C@H](CC(C)C)NC(=O)[C@H](CC(=O)O)NC(=O)[C@H](C)NC(=O)[C@H](C)NC(=O)[C@H](Cc1ccc(O)cc1)NC(=O)[C@H](CCC(N)=O)NC(=O)[C@H](C)NC(=O)[C@H](CCSC)NC(=O)[C@H](CCC(N)=O)NC(=O)[C@H](CCC(=O)O)NC(=O)[C@@H]1CCCN1C(=O)[C@@H](NC(=O)[C@H](C)NC(=O)[C@H](CC(N)=O)NC(=O)[C@H](CC(=O)O)NC(=O)CNC(=O)[C@@H]1CCCN1C(=O)[C@H](Cc1ccc(O)cc1)NC(=O)[C@@H](NC(=O)[C@@H]1CCCN1C(=O)[C@H](CCC(=O)O)NC(=O)[C@H](CC(C)C)NC(=O)[C@@H]1CCCN1C(=O)[C@H](C)N)C(C)C)[C@@H](C)O)C(=O)N[C@@H](CC(N)=O)C(=O)N[C@@H](CCSC)C(=O)N[C@@H](CC(C)C)C(=O)N[C@H](C(=O)N[C@@H](CCCNC(=N)N)C(=O)N1CCC[C@H]1C(=O)N[C@@H](CCCNC(=N)N)C(=O)N[C@@H](Cc1ccc(O)cc1)C(N)=O)[C@@H](C)O,"NPY1R (Homo sapiens, UniProt P25929)",,,concentration not given,,Emax,100 ± 4%
CCNC(=O)[C@@H]1CCCN1C(=O)[C@H](CCCNC(=N)N)NC(=O)[C@H](CC(C)C)NC(=O)[C@@H](COC(C)(C)C)NC(=O)[C@H](Cc1ccc(O)cc1)NC(=O)[C@H](CO)NC(=O)[C@H](Cc1c[nH]c2ccccc12)NC(=O)[C@H](Cc1c[nH]cn1)NC(=O)[C@@H]1CCC(=O)N1,GNRHR,"inositol phosphate, agonist, TR-FRET",HEK-293T,1 h,,Emax,100%
CC(C)C[C@H](NC(=O)[C@H](C)NC(=O)[C@H](CO)NC(=O)[C@@H]1CCCN1C(=O)[C@@H]1CCCN1C(=O)[C@H](CCC(N)=O)NC(=O)[C@H](CC(C)C)NC(=O)[C@@H](N)[C@@H](C)O)C(=O)N[C@@H](CCCNC(=N)N)C(=O)N[C@@H](CCCNC(=N)N)C(=O)N[C@@H](CCCNC(=N)N)C(=O)N[C@@H](Cc1c[nH]cn1)C(=O)N[C@@H](Cc1ccc(O)cc1)C(=O)N[C@@H](Cc1c[nH]cn1)C(=O)N[C@@H](Cc1c[nH]cn1)C(=O)N[C@@H](C)C(=O)N[C@@H](CC(C)C)C(=O)N1CCC[C@H]1C(=O)N1CCC[C@H]1C(=O)N[C@@H](CO)C(=O)N[C@@H](CCCNC(=N)N)C(=O)O,C3AR1,"GoA protein dissociation, agonist, NanoBiT",,,relative to: TLQP-21,Emax,45.2 ± 3.13%
Cc1ncsc1-c1ccc(C(C)NC(=O)C2CC(O)CN2C(=O)C(NC(=O)CCCCCCCCCCN2CCCC(Nc3ncc(Cl)c(Nc4ccccc4S(=O)(=O)C(C)C)n3)C2)C(C)(C)C)cc1 (centres unmarked),22Rv1,"RNA-seq, measured: NR4A1 mRNA",,concentration not given,relative to: DMSO,log2 fold change,-1.12
Cc1ccc(C(NC(=O)c2cc(-c3ccccc3)n(-c3ccccc3)n2)c2ccncc2)cc1 (centres unmarked),Genome polyprotein NS2B-NS3 protease,reporter gene,HeLa,,,EC50,6 µM
CCOC(=O)C(CC)(CCCSCCCCCCNc1ccc([N+](=O)[O-])c2nonc12)NC(=O)c1ccc(C2CC2)c(Cc2ccc(F)cc2)n1 (centres unmarked),CNR2,"cAMP, agonist",,,,Emax,100%
CC[C@H](C)[C@H](NC(=O)[C@@H]1CCCN1C(=O)[C@@H](NC(=O)[C@@H](N)Cc1ccccc1)C(C)C)C(=O)N[C@@H](Cc1ccccc1)C(=O)N[C@H](C(=O)N[C@@H](Cc1ccc(O)cc1)C(=O)NCC(=O)N[C@@H](CCC(=O)O)C(=O)N[C@@H](CC(C)C)C(=O)N[C@@H](CCC(N)=O)C(=O)N[C@@H](CCCNC(=N)N)C(=O)N[C@@H](CCSC)C(=O)N[C@@H](CCC(N)=O)C(=O)N[C@@H](CCC(=O)O)C(=O)N[C@@H](CCCCN)C(=O)N[C@@H](CCC(=O)O)C(=O)N[C@@H](CCCNC(=N)N)C(=O)N[C@@H](CC(N)=O)C(=O)N[C@@H](CCCCN)C(=O)NCC(=O)N[C@@H](CCC(N)=O)C(=O)O)[C@@H](C)O,"Motilin receptor (MLNR, Homo sapiens, UniProt O43193, Y345A)","IP1 accumulation, agonist, IP-One HTRF",AD293,"1 h, 37 °C, 7.43",,Emax,47 ± 6.9%
Cc1cc(C(c2ccc(Cl)cc2)c2ccc(Cl)cc2)sc1C(=O)N[C@@H](CCCN=C(N)N)C(=O)O,C3AR1,"cAMP response, agonist, GloSensor cAMP",,Gi signalling,,Emax,52.6 ± 2%
CCOC(=O)[C@](CC)(CCCSCCOCCOCCNC(=O)OC(C)(C)C)NC(=O)c1ccc(C2CC2)c(Cc2ccc(F)cc2)n1,CNR2,"cAMP, agonist",,,,Emax,93%
